Experimental data of several laboratories.
Compare with care: the assays were run in different laboratories. ± gives the spread as reported.

Structure (SMILES)	species	medium	route	dose	Cmax
CC=C1C(OC2OC(CO)C(O)C(O)C2O)OC=C(C(=O)OC)C1CC(=O)OCC1OC(OCCc2ccc(O)cc2)C(O)C(O)C1O (centres unmarked)	pseudo-germfree tumour-bearing Balb/c mice	plasma	oral	109.2 mg/kg	2440 ng/mL
C[C@@H]1Cc2c([nH]c3ccccc23)[C@@H](c2c(F)cc(/C=C/C(=O)O)cc2F)N1C12CC(C1)C2	BALB/c nude mice MCF-7 xenograft	tumour	oral	10 mg/kg	2.07 µg/g
CC1=C(/C=C/C(=O)N2CCN(C(N)=O)CC2)C(C)(C)CCC1	female mice	retina	oral	20 mg/kg	2.13 nmol/g
Oc1cc(F)ccc1Oc1ccccc1	CD-1 mice	plasma	subcutaneous	dose not given	1820 ng/mL
N=C(N)NCCC[C@@H]1NC(=O)[C@H](Cc2c[nH]c3ccccc23)NC(=O)[C@@H](CC2CCCCC2)NC(=O)[C@@H]2CCCN2C(=O)[C@@H](NC(=O)CCc2ccccc2)CCCNC1=O	C57BL/6J mice	spinal cord	intravenous	1 mg/kg	0.45 µg/g
O=C(OCc1cccc(O)c1O)c1ccc(O)c(CO)c1	mice	serum	intraperitoneal	2.5 mg/kg/day	< 10 nM
CCCCCCc1ccc(Oc2ccccc2C#N)c(O)c1	CD-1 mice	plasma	subcutaneous	100 mg/kg	760 ± 540 ng/mL
CC(C)(C)ONc1nc(Nc2ccnc(C(F)(F)F)c2)nc(-c2cccc(C(F)(F)F)n2)n1	female Balb/cA nude mice xenograft	plasma	oral	54.14 mg/kg	4720 ng/mL
